Published values of several laboratories.
A part holds a random share of what one study measured. Values joined by “and” are separate records of one study, mostly repeats; a detail may differ. pEC50, pKd: −log10 of the molar value.
Sequence of UniProt P27361 (whole entry, looked up): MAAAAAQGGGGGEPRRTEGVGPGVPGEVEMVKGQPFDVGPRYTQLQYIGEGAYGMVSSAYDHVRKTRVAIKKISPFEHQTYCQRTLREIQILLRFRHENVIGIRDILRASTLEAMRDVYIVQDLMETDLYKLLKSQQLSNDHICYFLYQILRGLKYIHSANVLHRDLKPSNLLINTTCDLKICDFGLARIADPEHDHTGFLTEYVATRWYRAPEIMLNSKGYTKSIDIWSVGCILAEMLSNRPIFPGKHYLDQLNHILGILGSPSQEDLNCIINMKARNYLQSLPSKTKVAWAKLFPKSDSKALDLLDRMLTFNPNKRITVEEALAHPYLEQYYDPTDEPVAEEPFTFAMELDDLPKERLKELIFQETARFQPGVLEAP
Sequence of UniProt Q9Y2U5 (whole entry, looked up): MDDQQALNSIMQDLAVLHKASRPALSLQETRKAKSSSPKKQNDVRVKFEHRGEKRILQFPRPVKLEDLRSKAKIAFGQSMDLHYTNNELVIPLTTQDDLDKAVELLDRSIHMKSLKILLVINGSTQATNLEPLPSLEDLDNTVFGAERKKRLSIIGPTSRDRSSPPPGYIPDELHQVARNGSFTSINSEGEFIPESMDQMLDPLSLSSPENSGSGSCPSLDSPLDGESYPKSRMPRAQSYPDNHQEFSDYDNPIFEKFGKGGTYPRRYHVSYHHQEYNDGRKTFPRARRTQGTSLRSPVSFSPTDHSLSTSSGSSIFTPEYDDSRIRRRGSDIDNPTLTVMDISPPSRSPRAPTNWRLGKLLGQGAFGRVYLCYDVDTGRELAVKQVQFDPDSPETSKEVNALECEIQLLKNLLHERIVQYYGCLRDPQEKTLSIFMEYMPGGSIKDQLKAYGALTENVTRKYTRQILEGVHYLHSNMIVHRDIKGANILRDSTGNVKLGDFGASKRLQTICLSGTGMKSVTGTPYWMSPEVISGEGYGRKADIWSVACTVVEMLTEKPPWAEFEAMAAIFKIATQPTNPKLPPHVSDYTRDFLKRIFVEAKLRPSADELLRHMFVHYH

Block 1 — host: human; sample: microsomes or S9; concentration: 2 µM; time: 0.5 h; endpoint: remaining compound
CC(NNC(=O)c1ccccc1Br)C(=O)Nc1sccc1C#N (stereo not drawn): 57.4%
O=c1c2c3c(nn2cnn1Cc1nc(-c2ccccc2F)no1)CCCC3: 12.5%
CCOC(=O)c1[nH]c(=O)n(CCNC(=O)OC(C)(C)C)c1C: 59.3%
O=C(Nc1cc(Cl)ccc1Cl)c1c2c(nn1C1CCS(=O)(=O)C1)CCC2 (stereo not drawn): 69.4%
Cc1cc(-c2cnc(C)nc2-c2sccc2C)on1: 63.4%
CCc1cnc(NCCCn2ccnc2CC)nc1: 97.7%
Cc1cc(NCCCc2nc(C(C)C)no2)nc(-c2ccc(S(C)(=O)=O)cc2)n1: 15.2%
Cc1ccc(C(C)(C)C)c(OCCOCCN2CC(C)OC(C)C2)c1 (stereo not drawn): 0.0987%
COc1cccc(-c2c3c(cc(OC)c2OC)C(=O)N(c2cccc(C(=O)O)c2)C3)c1: 92.8%
CC(C)c1nc(OCCCN(C)C)c(C#N)c2c1CCCC2: 50.2%
COc1cc(=O)n(C)cc1C(=O)N1CCc2ccccc21: 84.4%

Block 2 — read-out: enzyme activity; mode: inhibitor; concentration: 0.5 µM; reference: control; endpoint: remaining activity
SMILES: CC(=O)O/N=C1/C(c2c(O)[nH]c3cc(Br)ccc23)=Nc2ccccc21
EGFR (Homo sapiens, UniProt P00533): 91.1%
ROS1 (Homo sapiens, UniProt P08922): 105%
BRSK1 (Homo sapiens, UniProt Q8TDC3): 43.5%
PKN2 (Homo sapiens, UniProt Q16513): 85.4%
DYRK4 (Homo sapiens, UniProt Q9NR20): 96.7%
Aurora kinase A (AURKA, Homo sapiens, UniProt O14965): 55.4%
Cyclin-dependent kinase 2, with cyclin A (CDK2, Homo sapiens, UniProt P24941): 22.3%
HIPK3 (Homo sapiens, UniProt Q9H422): 76.7%
CDK7 (Homo sapiens, UniProt P50613): 91.1%
CAMK1G (Homo sapiens, UniProt Q96NX5): 101%
NTRK3 (Homo sapiens, UniProt Q16288): 15.1%
CAMK1D (Homo sapiens, UniProt Q8IU85): 79.1%
MAP3K2 (Homo sapiens, UniProt Q9Y2U5): 93.1%
ROCK2 (Homo sapiens, UniProt O75116): 91.7%
SLK (Homo sapiens, UniProt Q9H2G2): 80.2%
PRKD1 (Homo sapiens, UniProt Q15139): 82.1%
PTK2B (Homo sapiens, UniProt Q14289): 85.9%
NEK9 (Homo sapiens, UniProt Q8TD19): 86.7%
MAP3K8 (Homo sapiens, UniProt P41279): 104%
GRK5 (Homo sapiens, UniProt P34947): 104%
DMPK (Homo sapiens, UniProt Q09013): 95.4%
RET (Homo sapiens, UniProt P07949): 6.58%
MAPK10 (Homo sapiens, UniProt P53779): 83%

Block 3 — read-out: ATPase activity; concentration: concentration not given; notes: average; with: with ssDNA; endpoint: remaining activity
Target: DNA polymerase theta, helicase domain (POLQ, Homo sapiens, UniProt O75417)
Sequence of UniProt O75417 (whole entry, looked up): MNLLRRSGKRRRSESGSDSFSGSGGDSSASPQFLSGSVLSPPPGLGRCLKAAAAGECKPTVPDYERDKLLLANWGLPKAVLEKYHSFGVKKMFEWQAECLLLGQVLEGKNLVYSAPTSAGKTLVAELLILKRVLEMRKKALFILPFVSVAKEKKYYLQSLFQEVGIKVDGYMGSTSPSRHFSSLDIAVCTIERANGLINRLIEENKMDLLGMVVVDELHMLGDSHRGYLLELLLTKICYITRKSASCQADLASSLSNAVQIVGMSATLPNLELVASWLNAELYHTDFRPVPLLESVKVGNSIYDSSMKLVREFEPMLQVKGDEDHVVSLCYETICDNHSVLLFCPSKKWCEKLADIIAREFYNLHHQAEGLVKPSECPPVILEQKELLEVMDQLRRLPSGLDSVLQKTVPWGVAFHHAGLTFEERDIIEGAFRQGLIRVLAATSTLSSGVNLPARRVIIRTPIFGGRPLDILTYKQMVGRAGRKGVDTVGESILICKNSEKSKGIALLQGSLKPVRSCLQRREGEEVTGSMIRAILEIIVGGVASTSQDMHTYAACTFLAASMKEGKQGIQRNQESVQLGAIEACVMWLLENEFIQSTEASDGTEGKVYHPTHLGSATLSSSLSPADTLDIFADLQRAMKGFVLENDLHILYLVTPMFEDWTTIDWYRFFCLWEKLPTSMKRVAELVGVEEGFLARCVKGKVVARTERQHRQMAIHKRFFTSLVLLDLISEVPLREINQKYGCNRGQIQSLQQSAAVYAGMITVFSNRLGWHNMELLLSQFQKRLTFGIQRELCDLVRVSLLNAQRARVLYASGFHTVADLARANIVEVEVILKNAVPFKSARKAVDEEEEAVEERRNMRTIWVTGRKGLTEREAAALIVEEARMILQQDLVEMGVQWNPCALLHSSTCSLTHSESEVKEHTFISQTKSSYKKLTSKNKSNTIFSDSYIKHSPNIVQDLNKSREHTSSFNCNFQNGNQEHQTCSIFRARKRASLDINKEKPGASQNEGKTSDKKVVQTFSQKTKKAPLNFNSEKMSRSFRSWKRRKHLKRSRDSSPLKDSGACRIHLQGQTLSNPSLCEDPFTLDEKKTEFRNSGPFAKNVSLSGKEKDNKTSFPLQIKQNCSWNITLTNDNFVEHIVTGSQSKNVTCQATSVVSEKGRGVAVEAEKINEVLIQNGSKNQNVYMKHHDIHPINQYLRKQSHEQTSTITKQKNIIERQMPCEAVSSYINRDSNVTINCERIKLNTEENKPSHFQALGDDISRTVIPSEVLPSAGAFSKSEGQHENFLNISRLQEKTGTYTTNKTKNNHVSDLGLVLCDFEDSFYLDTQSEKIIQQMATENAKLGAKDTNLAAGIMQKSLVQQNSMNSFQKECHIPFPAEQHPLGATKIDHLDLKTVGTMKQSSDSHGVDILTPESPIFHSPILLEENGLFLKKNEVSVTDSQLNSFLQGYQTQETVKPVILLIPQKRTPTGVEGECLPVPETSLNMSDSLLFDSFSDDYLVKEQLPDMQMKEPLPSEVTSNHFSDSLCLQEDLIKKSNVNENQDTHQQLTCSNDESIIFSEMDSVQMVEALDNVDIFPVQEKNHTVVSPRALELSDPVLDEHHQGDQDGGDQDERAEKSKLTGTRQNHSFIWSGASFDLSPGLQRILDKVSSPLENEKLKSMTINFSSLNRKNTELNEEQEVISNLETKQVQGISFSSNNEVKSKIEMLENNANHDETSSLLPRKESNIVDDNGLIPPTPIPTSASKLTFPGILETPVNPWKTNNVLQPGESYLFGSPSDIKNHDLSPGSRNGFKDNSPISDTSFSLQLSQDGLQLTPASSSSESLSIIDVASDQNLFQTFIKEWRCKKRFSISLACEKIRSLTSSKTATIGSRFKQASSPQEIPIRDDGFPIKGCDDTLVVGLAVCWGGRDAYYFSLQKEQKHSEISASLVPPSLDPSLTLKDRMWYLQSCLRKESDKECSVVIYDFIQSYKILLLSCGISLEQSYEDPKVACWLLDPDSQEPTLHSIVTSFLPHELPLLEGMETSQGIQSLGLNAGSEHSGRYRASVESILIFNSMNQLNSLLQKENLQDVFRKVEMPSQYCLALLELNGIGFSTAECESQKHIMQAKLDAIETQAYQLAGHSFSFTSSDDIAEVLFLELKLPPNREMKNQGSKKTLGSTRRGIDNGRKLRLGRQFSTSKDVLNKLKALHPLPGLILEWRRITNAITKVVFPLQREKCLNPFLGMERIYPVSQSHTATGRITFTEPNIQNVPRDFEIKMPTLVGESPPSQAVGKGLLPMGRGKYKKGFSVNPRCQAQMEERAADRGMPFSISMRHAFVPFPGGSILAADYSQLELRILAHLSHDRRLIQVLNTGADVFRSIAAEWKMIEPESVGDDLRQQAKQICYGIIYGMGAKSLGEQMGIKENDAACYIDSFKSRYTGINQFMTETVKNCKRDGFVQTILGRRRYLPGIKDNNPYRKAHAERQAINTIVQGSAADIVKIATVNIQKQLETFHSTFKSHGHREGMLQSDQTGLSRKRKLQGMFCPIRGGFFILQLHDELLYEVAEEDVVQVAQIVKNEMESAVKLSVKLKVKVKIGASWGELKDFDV
CCCCCCCCCCC/C=C\C(C)(C)/C=C\CCCC(=O)O: 97.8%
CC[N+](C)(CC)CCC[n+]1c(-c2ccccc2)c2cc(N)ccc2c2ccc(N)cc21: 41.5%
Cc1ccc(C(=O)c2cc(O)c(O)c([N+](=O)[O-])c2)cc1: 50.8%
CC(=O)[C@]1(O)Cc2c(O)c3c(c(O)c2[C@@H](O[C@H]2C[C@H](N)[C@H](O)[C@H](C)O2)C1)C(=O)c1ccccc1C3=O: 57.5% and 59.5%
Cc1ccc(C(=O)Nc2ccccc2C(=O)O)cc1S(=O)(=O)N1CCCCCC1: 68.8%
Cc1ccc(NC(=O)CSc2ncc(S(=O)(=O)c3ccc(C(C)C)cc3)c(=O)[nH]2)cc1C: 77.3%
COc1ccc(C(=O)Nc2noc3ccccc23)cc1: 63.1%
COc1cccc2c1C(=O)c1c(O)c3c(c(O)c1C2=O)C[C@@](O)(C(=O)CO)C[C@@H]3O[C@H]1C[C@H](N)[C@H](O)[C@H](C)O1: 48.1%

Block 4 — read-out: binding; mode: competitor; method: NanoBRET; cell line: HEK293; endpoint: normalized BRET
Compound: CN1CCC[C@H]1COc1nc2c(c(N3CCN(S(C)(=O)=O)[C@@H](CC#N)C3)n1)CCN(c1cccc3cccc(Cl)c13)C2
KRAS Q61H: GTPase KRas (KRAS, Homo sapiens, UniProt P01116, Q61H)
GTPase KRas (KRAS, Homo sapiens, UniProt P01116, Q61R); 412 nM: 76.3% and 81.4% and 96.9%
GTPase KRas (KRAS, Homo sapiens, UniProt P01116, G13D); 3.7 µM: 19.2% and 17.2%
KRAS Q61H; 11.1 µM: 12.9% and 14.6% and 16.8%
GTPase KRas (KRAS, Homo sapiens, UniProt P01116, G12D); 33.3 µM: 30.6% and 43.6% and 39.2%
KRAS Q61H; 3.7 µM: 20.4% and 26.9% and 25.2%
GTPase KRas (KRAS, Homo sapiens, UniProt P01116, Q61L); 15.2 nM: 101% and 93.4% and 98.1%

Single results of other studies
Cc1ccc(-c2cnc([C@@]3(O)CC[C@H](C(=O)O)C(C)(C)C3)s2)cc1Nc1cccc(C(F)(F)F)n1 — pKd (LIM domain kinase 1 (LIMK1, Homo sapiens, UniProt P53667); binding, competition with immobilised ligand): < 5.00
C[C@@H]1CN(c2cc(-c3nn(C)c4ccc(OC5(C)CC5)cc34)ncn2)C[C@H](C)O1 — remaining activity (JAK3 (Homo sapiens, UniProt P52333); enzyme activity, inhibitor; 1 µM): 12%
C[C@H](NC(=O)Nc1cc2[nH]ncc2c(CO)n1)c1ccccn1 — pEC50 (MAPK3 (Homo sapiens, UniProt P27361); target engagement, NanoBRET; live cells): 5.38 and 5.08 and 5.12
